Results pooled from the literature.
A part holds a random share of what one study measured. Changes are numbered by the printed parent chain.

Set 1
Target: MAFF, bZIP domain (human)
Method: DHFR protein complementation
Medium: yeast
Setting: single substitutions, most at no-binding floor
Relative to: wild-type JUN-FOS pair
Reading: higher = stronger binding
Parent: JUN, bZIP domain (human); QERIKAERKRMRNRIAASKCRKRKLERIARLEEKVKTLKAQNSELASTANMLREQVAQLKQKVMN; partner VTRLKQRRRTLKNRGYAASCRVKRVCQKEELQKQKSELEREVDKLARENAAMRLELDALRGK
Change	binding fitness [natural log]
T37R	-1.39
L38W	-1.48
Q41L	-1.34
R30K	-1.48
A40C	-1.31
L45V	-1.54
M51D	-1.29
S47N	-1.45
E33W	-1.52
L45P	-1.5
E33M	-1.56
Q55M	-1.53
L45M	-1.5
S43T	-1.38
Q41P	-1.55
R30F	-1.28
T48E	-1.3
L59P	-1.49
T37S	-1.27
S47Q	-1.32
T48V	-1.44

Set 2
Target: RING finger protein unkempt homolog, zinc fingers 1-6, GST-SBP tag (UNK, Homo sapiens, UniProt Q9C0B0, residues 30-357)
Method: RNA Bind-n-Seq
Form: RNA
Medium: in vitro
Tested at: not given
Setting: RNA with constant flanks, human and mouse sites, ends assumed
Relative to: input RNA pool
Reading: higher = stronger binding
Target sequence (chain): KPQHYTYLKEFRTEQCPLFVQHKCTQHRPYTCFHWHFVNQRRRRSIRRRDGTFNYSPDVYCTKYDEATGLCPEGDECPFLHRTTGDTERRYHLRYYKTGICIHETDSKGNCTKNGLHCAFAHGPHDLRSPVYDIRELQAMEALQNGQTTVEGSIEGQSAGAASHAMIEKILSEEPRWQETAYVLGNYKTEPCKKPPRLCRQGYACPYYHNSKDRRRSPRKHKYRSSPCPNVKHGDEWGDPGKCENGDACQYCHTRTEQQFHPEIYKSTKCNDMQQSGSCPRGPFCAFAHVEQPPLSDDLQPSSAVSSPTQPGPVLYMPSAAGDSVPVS
Oligonucleotide	bound/input enrichment [ratio]
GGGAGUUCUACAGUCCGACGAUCUUCUAAAAACAUUCAUAAUGCAGUCAUGUUUAUUUUUUUCUGUUAAAAUGUUUUUGACAGUUUUAAGAGCAGUCUUUUGGCUCUGACCAUUUCUUGUUCUGUUUCCAAUGAAAUCAAUAACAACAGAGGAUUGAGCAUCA	0.138
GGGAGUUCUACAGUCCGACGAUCCCAGAAGGACAAGUUGUCUGUUUUGAUGCCAAGAUAAACUUUGAUGACAAUGCUGAGUUCCGACAAAAGGACAUAUUUGCUAUGGACGACAAAUCCGAGAAUGAGCCCAUUGAAAAUGAACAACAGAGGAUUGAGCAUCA	0.203
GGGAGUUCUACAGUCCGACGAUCGAUGAAGUGGAGAAGUACAACCGAAAUGGAGUCAAUGCUCUGCAGCUGGAUCCAGCACUAAAUAGACUUUUCACAGCCGGUCGAGACUCUAUCAUAAGAAUAUGGAGUGUCAAUCAGCACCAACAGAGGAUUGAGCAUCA	0.132
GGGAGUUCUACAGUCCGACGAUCUGUGUGUGUGUGUGUGUGUGUGUGUGUGUGUGUGUGUGAAUUUUCUAUCGGCCUGGAUAUAUUAGCAGGGUUUGAAUGUAGUUUUGGCCUUUGGCCAUUAUAUACUUCUAUUAAAAUCCACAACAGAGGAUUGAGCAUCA	2.04
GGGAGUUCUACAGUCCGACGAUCUAAUGUUUGCACUCAUCUGACAGAAUCCCUGAGUUACAGUAUACAGCUAUGUGGUAAUAUUCAUUGCCAUUGAAAUUCUUACUUGGUAUGAAAUAUAAAGUGUUUCCUUAAAAUUACAUCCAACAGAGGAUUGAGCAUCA	0.101
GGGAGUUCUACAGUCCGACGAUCUCCCCCAGGAGAGGGACCGCCUUCCCAGCUGUAAGCCUCCUGUCCCUCUGUCCCCAUGUCCUGGUGGGACCCCUGCUGGCAGCAGUGGCGGCAGCCCUGGUGAAGACCCCAGGAGAACAGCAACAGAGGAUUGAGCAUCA	0.122
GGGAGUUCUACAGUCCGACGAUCAUUUUGGUUUGGUUUGGUUUUUGAAGUUAUGUGAUAUUUCACAUUUAAAUCUUUUUUCUUUUUUACAUGUUUUCUCUUGUGCAUCAAUUUAAAUGUUACAACCAUGUAAACUACUUCUCUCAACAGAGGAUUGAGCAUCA	0.426
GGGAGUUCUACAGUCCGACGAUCUCCACGGAUGUUUAAUAUCAUCUCAGAUUCCCCAUCUCCUAUUGCUGCAAGAACACUGACAUUAGUGGCUAAAUCUGUGCAGAAUUUAGCAAAUCUUGUGGAAUUUGGAGCUAAGGAGCCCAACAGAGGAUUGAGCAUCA	0.0852
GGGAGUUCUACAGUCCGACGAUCAUGUGGUAUCGUUUACGGUUAUUAAAACCCCAGCCAAAUAUUAUUCCUACAGUAAAGAAAAUAGUUCUGCUUGCAGGAUGGGCACUGUUCUUAUUUCUUGCAUACAAAGUUUCCAAAACACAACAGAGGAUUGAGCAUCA	0.277
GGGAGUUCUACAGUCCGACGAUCUUAGCUCUCAUUGACUACCUGACACAGAAACGGAGCCAGUUGGUAAAGAAGCUGAAUGACUCGGAUCACCAGUCCAGCACCUCCCCGCUCAUGGAGGGCACUCCCACCAUCAAGUCCAAGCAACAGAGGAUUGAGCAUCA	0.086
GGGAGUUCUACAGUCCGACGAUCGAAGAAUUAGAUGCCUUGUUAAACAAUUUCUGUGAACUCUCAGCUCCAGGAGGUGUGGAAAAUAGUUAUGGGAAAAUAAAUAUCCUACUUCAAACCUACAUCAGCCGAGGAGAGAUGGACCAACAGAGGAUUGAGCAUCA	1.03

Set 3
Target: Histone acetyltransferase KAT6A, winged helix 2, GST fusion (KAT6A, Homo sapiens, UniProt Q92794, residues 85-181)
Method: protein binding microarray
Form: double-stranded DNA, one strand shown
Medium: in vitro
Tested at: not given
Setting: 8-mer, flanks averaged, mean of 2 arrays, mostly near background
Relative to: not given
Reading: higher = stronger binding
Target sequence (chain): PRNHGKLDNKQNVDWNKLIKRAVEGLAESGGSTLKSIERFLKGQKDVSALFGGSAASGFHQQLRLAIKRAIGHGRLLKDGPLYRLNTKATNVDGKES
Oligonucleotide	E-score
GTAGAGCA	0.0646
AACAGTCT	-0.247
GACCACAA	0.0164
CACAGCGA	0.187
AATTGACA	0.217
AGGCGGAC	0.255
AACGCGCG	0.205
AGCGGTCA	0.00991
GGCATGAC	-0.155
GCAGTTAA	0.0205
AGCTGATG	0.227
CCAAATAG	-0.0383
AGCTTAGC	0.13
CTGCACAC	-0.0982
CCTATAAA	-0.225
CCGAGCGA	0.257
TGTTCAAA	-0.0284

Set 4
Target: CCNA2, cyclin fold, Cln2 fusion (human)
Method: yeast growth competition, sequencing
Medium: yeast
Setting: strong parent motif
Relative to: not given
Reading: higher = stronger binding
Parent: SAMHD1 docking peptide (human); ASKSRVQLFKDDP; partner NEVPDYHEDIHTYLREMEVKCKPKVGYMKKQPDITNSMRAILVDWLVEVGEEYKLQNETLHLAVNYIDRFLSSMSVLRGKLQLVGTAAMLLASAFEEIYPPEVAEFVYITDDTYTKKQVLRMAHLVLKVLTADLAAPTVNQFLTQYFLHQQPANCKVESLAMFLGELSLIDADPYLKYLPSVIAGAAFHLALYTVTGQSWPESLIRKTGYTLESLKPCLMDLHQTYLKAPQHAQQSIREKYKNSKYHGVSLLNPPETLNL
Change	normalised enrichment score
ASKSRVQLSKDDP [F9S]	0.291
ASKSPVQLFKDDP [R5P]	-0.787
ASKQRVQLFKDDP [S4Q]	0.369
ASPSRVQLFKDDP [K3P]	0.642
AYKSRVQLFKDDP [S2Y]	2.95
ASKGRVQLFKDDP [S4G]	1.29
ASKSRVQLFTDDP [K10T]	1.91
ASKSRPQLFKDDP [V6P]	-0.259
ASKSQVQLFKDDP [R5Q]	0.191
ASKSVVQLFKDDP [R5V]	0.72
ASKSRVGLFKDDP [Q7G]	0.795
ASKVRVQLFKDDP [S4V]	5.85
ASKWRVQLFKDDP [S4W]	3.66
ASKSREQLFKDDP [V6E]	-0.108
ASKSRVQLFKDHP [D12H]	2.7
ASKSRVPLFKDDP [Q7P]	-0.0316
ASKERVQLFKDDP [S4E]	-0.331
ASKSRVQLFKCDP [D11C]	2.18
ASKSRVQLFPDDP [K10P]	3.43
ASKSRVQLFKDFP [D12F]	2.94
ASKSRVQLFNDDP [K10N]	1.77
ASKSRVCLFKDDP [Q7C]	3.39
ASKSRVQLHKDDP [F9H]	-0.131
ASKSKVQLFKDDP [R5K]	1.47
ASKSRVQLFKDRP [D12R]	1.92

Set 5
Target: UBE2E2 UBC core domain (UniProt Q96LR5)
Chain of UniProt Q96LR5 (whole entry, looked up): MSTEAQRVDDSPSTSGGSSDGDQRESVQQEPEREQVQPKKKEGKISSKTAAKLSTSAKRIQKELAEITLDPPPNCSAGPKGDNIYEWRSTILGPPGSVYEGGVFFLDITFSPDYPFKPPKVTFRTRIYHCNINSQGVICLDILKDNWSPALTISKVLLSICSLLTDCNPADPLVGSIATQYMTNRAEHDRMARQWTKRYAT
Method: yeast two-hybrid
Medium: yeast
Setting: mostly zero background
Relative to: not given
Reading: higher = stronger interaction
B1: RNF7 RING domain (UniProt Q9UBF6); chain AICRVQVMDACLRCQAENKQEDCVVVWGECNHSFHNCCMSLWVKQNNRCPLCQQDWVVQRIGK
B2: RNF17 RING domain (UniProt Q9BXT8); chain SQPWGAAEIQCTRCGRRVSRSSGHHCELQCGHAFCELCLLMTEECTTIICPDCEVATAVNTRQR
B3: UBE4B RING domain (UniProt O95155); chain KNARAEIDYSDAPDEFRDPLMDTLMTDPVRLPSGTIMDRSIILRHLLNSPTDPFNRQTLTESMLEPVPELKEQIQAWMREKQNSDH
B4: TRIM28 RING domain (UniProt Q13263); chain GAEALELLEHCGVCRERLRPEREPRLLPCLHSACSACLGPAAPAAANSSGDGGAAGDGTVVDCPVCKQQCFSKDIVE
B5: SHPRH RING domain (UniProt Q149N8); chain KTSGGVNPEPCPICARQLGKQWAVLTCGHCFCNECISIIIEQYSVGSHRSSIKCAICRQTTSHKEISY
B6: ARIH1 RING domain (UniProt Q9Y4X5); chain NTRSSAQDMPCQICYLNYPNSYFTGLECGHKFCMQCWSEYLTTKIMEEGMGQTISCPAHGCDILVDDNTVM
B7: RMND5B RING domain (UniProt Q96G75); chain MKCWYHSVFACPILRQQTSDSNPPIKLICGHVISRDALNKLINGGKLKCPYCPMEQNPADGK
B8: MDM2 RING domain (UniProt Q00987); chain TQDKEESVESSLPLNAIEPCVICQGRPKNGCIVHGKTGHLMACFTCAKKLKKRNKPCPVCRQPIQMIVLTYFP
Molecule	lacZ reporter activity
EDVLSKDAGECAICLEELQQGDTIARLPCLCIYHKGCIDEWFEVNRSCPEHPSD (ZNRF2 RING domain (UniProt Q8NHG8))	0
AAQLLEEKLTCAICLGLYQDPVTLPCGHNFCGACIRDWWDRCGKACPECREPFPDGAELR (TRIM65 RING domain (UniProt Q6PJ69))	0
B1 (RNF7 RING domain)	0
B2 (RNF17 RING domain)	0
B3 (UBE4B RING domain)	0
B4 (TRIM28 RING domain)	0
B5 (SHPRH RING domain)	0
B6 (ARIH1 RING domain)	0
MEEMEEELKCPVCGSFYREPIILPCSHNLCQACARNILVQTPESESPQSHRAAGSGVSDY (TRIM9 RING domain (UniProt Q9C026))	0
EIKDYKARLTCPCCNMRKKDAVLTKCFHVFCFECVKTRYDTRQRKCPKCNAAFGANDFHR (RNF20 RING domain (UniProt Q5VTR2))	0
B7 (RMND5B RING domain)	0
B8 (MDM2 RING domain)	0
VPADASPDSKCPICLDRFDNVSYLDRCLHKFCFRCVQEWSKNKAECPLCKQPFDSIFHSV (TOPORS RING domain (UniProt Q9NS56))	0

For quick reference, copied from above (set 4):
Change	normalised enrichment score
ASKSPVQLFKDDP [R5P]	-0.787
ASKQRVQLFKDDP [S4Q]	0.369
ASPSRVQLFKDDP [K3P]	0.642
AYKSRVQLFKDDP [S2Y]	2.95
ASKGRVQLFKDDP [S4G]	1.29
ASKSRVQLFTDDP [K10T]	1.91
ASKSRPQLFKDDP [V6P]	-0.259
ASKSQVQLFKDDP [R5Q]	0.191
ASKSVVQLFKDDP [R5V]	0.72
